Measurements pooled from the literature.
Protocols differ between the studies behind these lines.

Compound	cell line	assay	setting	scale	selectivity ratio
CCCCCCCCCCCCN[C@H]1C=C[C@]2(O[C@H]([C@@H](CC)C(=O)[C@@H](C)[C@@H](O)[C@H](C)[C@@H]3O[C@@H]([C@@H](CC)C(=O)O)CC[C@@H]3C)[C@@H](C)C[C@H]2C)O[C@@]12CC[C@@](C)([C@H]1CC[C@](O)(CC)[C@H](C)O1)O2	HMLER CD24low/CD44high	cell viability, CellTiter-Blue	72 h	relative to: IC50 HMLER CD24high/CD44low over CD24low/CD44high	4.1
CNC(=O)c1cc(Oc2ccc(NC(=O)c3ccc(-c4cccc(COC(=O)CCC(=O)OC5OC6OC7(C)CCC8C(C)CCC(C5C)C68OO7)c4)cn3)cc2)ccn1 (stereo not drawn)	HepG2 and LO2	cell viability, MTT	72 h	relative to: IC50 LO2 over IC50 HepG2	> 11.8
Cc1ccc(C(C)C)cc1.[Cl][Au].[Cl][Ru][Cl].c1ccc(P(CP(c2ccccc2)c2ccccc2)c2ccccc2)cc1	L929 and HCT-116	trypan blue exclusion		relative to: IC50 L929 over IC50 HCT-116	7.8
CCN[C@H]1C=C[C@]2(O[C@H]([C@@H](CC)C(=O)[C@@H](C)[C@@H](O)[C@H](C)[C@@H]3O[C@@H]([C@@H](CC)C(=O)O)CC[C@@H]3C)[C@@H](C)C[C@H]2C)O[C@@]12CC[C@@](C)([C@H]1CC[C@](O)(CC)[C@H](C)O1)O2	HMLER CD24low/CD44high	cell viability, CellTiter-Blue	72 h	relative to: IC50 HMLER CD24high/CD44low over CD24low/CD44high	6.1
C[C@@H](N)[C@H](O)CCCCCCCC(=O)CCCCCCCCCCCCCC[C@@H](O[C@@H]1O[C@H](CO)[C@@H](O)[C@H](O)[C@H]1O)[C@@H](N)CO	HCC70			relative to: IC50 MCF-12A over IC50 HCC70	2.3
CNC(=O)c1cc(Oc2ccc(NC(=O)c3cc(-c4ccccc4OC(=O)CCC(=O)OC4OC5OC6(C)CCC7C(C)CCC(C4C)C57OO6)ccn3)cc2)ccn1 (stereo not drawn)	HepG2 and LO2	cell viability, MTT	72 h	relative to: IC50 LO2 over IC50 HepG2	5.9
CC[C@H]1OC(=O)[C@H](C(C)C)NC(=O)[C@H](C)OC(=O)[C@@H](C(C)C)NC(=O)[C@@H](C(C)C)OC(=O)[C@H](C(C)C)NC(=O)[C@H](C)OC(=O)[C@@H](C(C)C)NC(=O)[C@@H](C(C)C)OC(=O)[C@H](C(C)C)NC(=O)[C@H](C)OC(=O)[C@@H](C(C)C)NC1=O	C6	cell growth, SRB		relative to: IC50 in HA over IC50 in C6	30
C[C@H](N)[C@@H](CCCCCCCCCCCCCCC(=O)CCCCCCC[C@@H](O)[C@@H](C)N)O[C@@H]1O[C@H](CO)[C@H](O)[C@H](O)[C@H]1O	HCC70			relative to: IC50 MCF-12A over IC50 HCC70	7.8
CNC(=O)c1cc(Oc2ccc(NC(=O)c3ccc(-c4ccc(OC(=O)CCC(=O)OC5OC6OC7(C)CCC8C(C)CCC(C5C)C68OO7)cc4)cn3)cc2)ccn1 (stereo not drawn)	HepG2 and LO2	cell viability, MTT	72 h	relative to: IC50 LO2 over IC50 HepG2	5.5
CC[C@@H](C(=O)[C@@H](C)[C@@H](O)[C@H](C)[C@@H]1O[C@@H]([C@@H](CC)C(=O)O)CC[C@@H]1C)[C@H]1O[C@]2(C=C[C@H](NCc3ccc(O)cc3)[C@]3(CC[C@@](C)([C@H]4CC[C@](O)(CC)[C@H](C)O4)O3)O2)[C@H](C)C[C@@H]1C	HMLER CD24low/CD44high	cell viability, CellTiter-Blue	72 h	relative to: IC50 HMLER CD24high/CD44low over CD24low/CD44high	12.4
CNC(=O)c1cc(Oc2ccc(NC(=O)c3cc(-c4ccc(COC(=O)CCC(=O)OC5OC6OC7(C)CCC8C(C)CCC(C5C)C68OO7)cc4)ccn3)cc2)ccn1 (stereo not drawn)	HepG2 and LO2	cell viability, MTT	72 h	relative to: IC50 LO2 over IC50 HepG2	2.5
CC[C@@H](C(=O)[C@@H](C)[C@@H](O)[C@H](C)[C@@H]1O[C@@H]([C@@H](CC)C(=O)O)CC[C@@H]1C)[C@H]1O[C@]2(C=C[C@H](NCc3ccc(C)cc3)[C@]3(CC[C@@](C)([C@H]4CC[C@](O)(CC)[C@H](C)O4)O3)O2)[C@H](C)C[C@@H]1C	HMLER CD24low/CD44high	cell viability, CellTiter-Blue	72 h	relative to: IC50 HMLER CD24high/CD44low over CD24low/CD44high	12.7

A few entries again:
Compound	cell line	assay	setting	scale	selectivity ratio
CCCCCCCCCCCCN[C@H]1C=C[C@]2(O[C@H]([C@@H](CC)C(=O)[C@@H](C)[C@@H](O)[C@H](C)[C@@H]3O[C@@H]([C@@H](CC)C(=O)O)CC[C@@H]3C)[C@@H](C)C[C@H]2C)O[C@@]12CC[C@@](C)([C@H]1CC[C@](O)(CC)[C@H](C)O1)O2	HMLER CD24low/CD44high	cell viability, CellTiter-Blue	72 h	relative to: IC50 HMLER CD24high/CD44low over CD24low/CD44high	4.1
CC[C@@H](C(=O)[C@@H](C)[C@@H](O)[C@H](C)[C@@H]1O[C@@H]([C@@H](CC)C(=O)O)CC[C@@H]1C)[C@H]1O[C@]2(C=C[C@H](NCc3ccc(O)cc3)[C@]3(CC[C@@](C)([C@H]4CC[C@](O)(CC)[C@H](C)O4)O3)O2)[C@H](C)C[C@@H]1C	HMLER CD24low/CD44high	cell viability, CellTiter-Blue	72 h	relative to: IC50 HMLER CD24high/CD44low over CD24low/CD44high	12.4
